Measurements gathered from unrelated publications.
± marks the error that the study gave.
Cell line: PC-3

| SMILES | effect on | method | time | IC50 |
| --- | --- | --- | --- | --- |
| C=C1C(=O)OC2CC3=C[C@@H](C/C(C)=C/C(OC(=O)Cc4cccc5ccccc45)[C@H]12)OC3=O (stereo partly shown) | cell growth or viability | MTT | 24 h | 5.5 µM |
| CCCCCCC(=O)NCCNC(=O)[C@]1(C)[C@@H]2CC[C@]3(C)[C@H](C(=O)C=C4[C@@H]5[C@@H](C)[C@H](C)CC[C@]5(C)CC[C@]43C)[C@@]2(C)CC[C@H]1OC(C)=O | cell growth or viability | MTT | 48 h | 13.8 µM |
| CCOC(=O)C1=C(C)NC(=O)N[C@@H]1/C=C/c1ccc(OC)cc1 | cell growth or viability | MTT | 24 h | 13.8 µM |
| Fc1ccc(-c2noc(-c3cccs3)c2C(F)(F)F)cc1 | cell growth or viability | MTT | 48 h | 15.4 µM |
| CC(C)=CCC1=C([O-])C(=O)c2ccccc2C1=O.CC(C)=CCC1=C([O-])C(=O)c2ccccc2C1=O.Cc1cc2cccnc2c2ncccc12.[Cu+2] | cell viability | MTT | 24 h | 6.2 ± 1.6 µM |
| Cc1ccc2c(c1)C(=O)[C@](C)([N+](=O)[O-])[C@@H](CC(=O)NC13CC4CC(CC(C4)C1)C3)O2 | cell growth or viability | SRB | 96 h | 6.39 µM |
| CCCCCCC(=O)NCCNC(=O)[C@@]1(C)[C@H](O)CC[C@@]2(C)[C@H]1CC[C@]1(C)[C@@H]2C(=O)C=C2[C@@H]3[C@@H](C)[C@H](C)CC[C@]3(C)CC[C@]21C | cell growth or viability | MTT | 48 h | 12.5 µM |
| CC(=O)[O][Pt]1([O]C(C)=O)[O]C(=O)C(=O)[O]1.NC1CCCCC1N | cell growth or viability |  |  | 15.8 µM |
| C=CCc1ccc(OCc2nnc(SCC(=O)Nc3cccc(Cl)c3)o2)c(OC)c1 | cell growth or viability | MTT | 72 h | 17 µM |
| CCCC(CCC)C(=O)NCCNC(=O)[C@@]1(C)[C@H](O)CC[C@@]2(C)[C@H]1CC[C@]1(C)[C@@H]2C(=O)C=C2[C@@H]3[C@@H](C)[C@H](C)CC[C@]3(C)CC[C@]21C | cell growth or viability | MTT | 48 h | 20.3 µM |
| C=CC(OC(C)=O)c1ccc(OC)cc1 (stereo not shown) |  | MTT | 24 h | > 50 µM |
| O=C(Cc1ccccc1)NC(=S)Nc1nccs1 | cell growth or viability | MTT | 48 h | 44.5 µM |
| CCN1CCC2(CC1)C/C(=N\N=C\c1ccc(O)cc1)c1ccccc1O2 | cell growth or viability | MTT | 48 h | 22.2 µM |
| C[C@]12CC/C(=N/O)C=C1CCC1C2CC[C@]2(C)/C(=C/c3ccccn3)CCC12 (stereo partly shown) | cell growth or viability | MTT | 72 h | 57.7 µM |
| COc1ccc(-c2c(C#N)c(N)n(-c3nnc(NC(=O)c4ccccc4)s3)c(=O)c2C#N)cc1 | cell growth or viability | MTT | 48 h | 35.8 µM |
| CCN(CC)CCN1C(=O)c2ccc3c4cccc5c(N6CCNCC6)ccc(c6ccc(c2c36)C1=O)c54 | cell growth or viability | SRB | 72 h | 4 µM |
| O=C1NN=C(c2ccccc2)/C1=N/Nc1ccc(F)cc1 | cell growth or viability | MTT |  | 96.8 µM |

| SMILES | effect on | method | time | IC50 |
| --- | --- | --- | --- | --- |
| C[C@]1([N+](=O)[O-])C(=O)c2ccccc2O[C@@H]1CC(=O)Nc1nc2ccccc2s1 | cell growth or viability | SRB | 96 h | > 50 µM |
| N=C(N)NCCC[C@@H]1NC(=O)[C@H](CCCCN)NC(=O)[C@@H](Cc2ccc(O)cc2)NC(=O)[C@H](CC(=O)O)NC(=O)CNC1=O | cytotoxicity | MTT | 48 h | > 100 µM |
| O=C([O][Ti+2][O]C(=O)c1ccc([P+]([Au-][Cl])(c2ccccc2)c2ccccc2)cc1)c1ccc([P+]([Au-][Cl])(c2ccccc2)c2ccccc2)cc1.c1cc[cH-]c1.c1cc[cH-]c1 | cell viability | XTT | 24 h | 51 µM |
| CCN(CC)CCO/N=C1/C=C2CCC3C(CC[C@]4(C)/C(=C/c5ccccn5)CCC34)[C@@]2(C)CC1 (stereo partly shown) | cell growth or viability | MTT | 72 h | > 100 µM |
| CC(=O)O[C@@H]1CC[C@@]2(C)[C@@H](CC[C@]3(C)[C@@H]2C(=O)C=C2[C@@H]4[C@@H](C)[C@H](C)CC[C@]4(C)CC[C@]23C)[C@@]1(C)C(=O)NCCNC(=O)c1ccccc1 | cell growth or viability | MTT | 48 h | 13.7 µM |
| COC(=O)CNC(=O)COc1ccc2c(C)cc(=O)oc2c1 | cell growth or viability | MTT |  | 106 µM |
| NC1CCCCC1N.O=C(CCCc1ccccc1)[O][Pt]1([O]C(=O)CCCc2ccccc2)[O]C(=O)C(=O)[O]1 | cell growth or viability |  |  | 6.35 µM |
| N=C(N)Nc1nc2ccccc2[nH]1 | cell growth or viability | MTT | 24 h | 121 µM |
| C=CCc1ccc(OCc2nnc(SCC(=O)Nc3ccc(F)cc3F)o2)c(OC)c1 | cell growth or viability | MTT | 72 h | 2.09 µM |
| C=C(CO)C(=O)O[C@H]1CC(=C)[C@@H]2C[C@H](O)[C@](O)(CCl)[C@@H]2[C@H]2OC(=O)C(=C)C12 (stereo partly shown) | cell growth or viability |  |  | 5.3 mg/L |
| CCN1CCC2(CC1)C/C(=N\NC(=O)Nc1ccc(C)cc1)c1ccccc1O2 | cell growth or viability | MTT | 48 h | 5.47 µM |
| Cc1ccc(C(=O)NCCNC(=O)[C@@]2(C)[C@H](O)CC[C@@]3(C)[C@H]2CC[C@]2(C)[C@@H]3C(=O)C=C3[C@@H]4[C@@H](C)[C@H](C)CC[C@]4(C)CC[C@]32C)cc1 | cell growth or viability | MTT | 48 h | 14 µM |
| CCN1CCC2(CC1)C/C(=N\NC(=O)Nc1ccc(OC)cc1)c1ccccc1O2 | cell growth or viability | MTT | 48 h | 15.5 µM |
| C[C@H]1[C@H](C)CC[C@]2(C)CC[C@]3(C)C(=CC(=O)[C@@H]4[C@@]5(C)CC[C@@H](O)[C@](C)(C(=O)NCCNC(=O)c6ccccc6)[C@@H]5CC[C@]43C)[C@H]12 | cell growth or viability | MTT | 48 h | 14.3 µM |
| C=CC(OC(C)=O)c1ccc(OC(C)=O)c(OC)c1 (stereo not shown) | cell growth or viability | MTT | 24 h | 13.8 µM |
| CC(=O)O[C@@H]1CC[C@@]2(C)[C@@H](CC[C@]3(C)[C@@H]2C(=O)C=C2[C@@H]4[C@@H](C)[C@H](C)CC[C@]4(C)CC[C@]23C)[C@@]1(C)C(=O)NCCNC(=O)c1ccc(C)cc1 | cell growth or viability | MTT | 48 h | 9.73 µM |
| CCCCn1cc(C(=O)O)c(=O)c2cc(F)c(Nc3ccc(OC)cc3OC)c(N)c21 | cell growth or viability | SRB | 72 h | > 200 mg/L |

Some of these lines once more:
| SMILES | effect on | method | time | IC50 |
| --- | --- | --- | --- | --- |
| CCN1CCC2(CC1)C/C(=N\N=C\c1ccc(O)cc1)c1ccccc1O2 | cell growth or viability | MTT | 48 h | 22.2 µM |
| C[C@]12CC/C(=N/O)C=C1CCC1C2CC[C@]2(C)/C(=C/c3ccccn3)CCC12 (stereo partly shown) | cell growth or viability | MTT | 72 h | 57.7 µM |
| COc1ccc(-c2c(C#N)c(N)n(-c3nnc(NC(=O)c4ccccc4)s3)c(=O)c2C#N)cc1 | cell growth or viability | MTT | 48 h | 35.8 µM |
| CCN(CC)CCN1C(=O)c2ccc3c4cccc5c(N6CCNCC6)ccc(c6ccc(c2c36)C1=O)c54 | cell growth or viability | SRB | 72 h | 4 µM |
| O=C1NN=C(c2ccccc2)/C1=N/Nc1ccc(F)cc1 | cell growth or viability | MTT |  | 96.8 µM |
| C[C@]1([N+](=O)[O-])C(=O)c2ccccc2O[C@@H]1CC(=O)Nc1nc2ccccc2s1 | cell growth or viability | SRB | 96 h | > 50 µM |
